Measured values collected from several papers.
Parts stem from different laboratories: compare values within a part only.

Series 1
Target: PABPC1L2, full length, GST fusion (mouse, UniProt A0ABA7IW68)
Technique: RNAcompete
Molecule type: RNA
Matrix: in vitro
Concentration: 20 nM
Notes: 7-mer, probes averaged, single round
Relative to: mean of 7-mers
Reading: higher = stronger binding
Residues (chain): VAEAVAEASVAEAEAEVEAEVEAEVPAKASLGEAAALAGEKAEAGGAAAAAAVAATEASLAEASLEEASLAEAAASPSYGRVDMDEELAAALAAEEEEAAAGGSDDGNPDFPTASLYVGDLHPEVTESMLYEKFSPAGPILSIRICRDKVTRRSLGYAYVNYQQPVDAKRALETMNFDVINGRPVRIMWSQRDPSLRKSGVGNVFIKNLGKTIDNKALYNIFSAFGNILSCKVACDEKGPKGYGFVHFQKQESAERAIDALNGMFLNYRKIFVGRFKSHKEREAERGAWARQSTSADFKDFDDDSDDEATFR
Sequence | 7-mer Z-score
AUACCGG | -0.0881
UCAGAUC | -0.164
GUCAAUA | -0.238
UCUACUC | -0.351

Series 2
Target: Sal-like protein 4, full length isoform B (SALL4, Homo sapiens, UniProt Q9UJQ4-2, residues 1-616)
Technique: universal PBM
Molecule type: double-stranded DNA, one strand shown
Matrix: in vitro
Concentration: not given
Notes: 8-mer, flanks averaged, mean of replicates
Reading: higher = stronger binding
Construct (chain): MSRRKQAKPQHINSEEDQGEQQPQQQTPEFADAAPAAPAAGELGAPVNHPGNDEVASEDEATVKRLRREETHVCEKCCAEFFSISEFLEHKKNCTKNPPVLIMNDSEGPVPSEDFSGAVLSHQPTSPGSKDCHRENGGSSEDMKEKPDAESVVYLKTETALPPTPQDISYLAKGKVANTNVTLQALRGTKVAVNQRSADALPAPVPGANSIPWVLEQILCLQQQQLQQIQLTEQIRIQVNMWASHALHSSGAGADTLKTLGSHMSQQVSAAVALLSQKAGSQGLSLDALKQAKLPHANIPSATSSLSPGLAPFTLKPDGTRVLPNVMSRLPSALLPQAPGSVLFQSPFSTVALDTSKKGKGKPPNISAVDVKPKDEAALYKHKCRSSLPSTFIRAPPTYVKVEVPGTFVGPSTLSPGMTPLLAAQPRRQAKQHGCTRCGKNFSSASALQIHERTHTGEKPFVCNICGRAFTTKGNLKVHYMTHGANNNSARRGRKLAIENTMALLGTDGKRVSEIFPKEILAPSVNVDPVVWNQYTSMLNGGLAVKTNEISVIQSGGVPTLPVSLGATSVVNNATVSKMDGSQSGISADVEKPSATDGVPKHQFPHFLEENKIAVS
Sequence | E-score
AGGGGCAC | -0.153
AAGTTAAT | 0.295
GGCTCTAA | -0.0466

Series 3
Target: Histone acetyltransferase KAT6A, winged helix 2, GST fusion (KAT6A, Homo sapiens, UniProt Q92794, residues 85-181)
Technique: protein binding microarray
Molecule type: double-stranded DNA, one strand shown
Matrix: in vitro
Concentration: not given
Notes: 8-mer, flanks averaged, mean of 2 arrays, mostly near background
Relative to: not given
Reading: higher = stronger binding
Target sequence (chain): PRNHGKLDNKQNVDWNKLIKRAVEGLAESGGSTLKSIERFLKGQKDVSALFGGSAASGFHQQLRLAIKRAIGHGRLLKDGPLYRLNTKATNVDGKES
Sequence | E-score
GAGTACGA | -0.061
CAGAACTC | 0.0444
CAGTTCTC | -0.13

Mixed results
Molecule | target | assay | test system | setting | scale | endpoint | result
PhoQ, residues 284 288 289 292 302 303 TTCLQL | PhoP, residues 12 14 15 18 19 AQALL (Escherichia coli, UniProt P23836) | Sort-seq, measured: YFP reporter | E. coli | PhoQ-PhoP variant library, added: 10 µM Mg2+ | relative to: high Mg2+ state, higher = stronger signaling | fold induction | 2.47

A few entries again (series 3):
Sequence | E-score
CAGAACTC | 0.0444
